{"data": "Experimental data from different studies", "note": "Each numbered part is a random draw from the data of one study; scales do not carry over between parts.", "sequence of UniProt P28482 (whole entry, looked up)": "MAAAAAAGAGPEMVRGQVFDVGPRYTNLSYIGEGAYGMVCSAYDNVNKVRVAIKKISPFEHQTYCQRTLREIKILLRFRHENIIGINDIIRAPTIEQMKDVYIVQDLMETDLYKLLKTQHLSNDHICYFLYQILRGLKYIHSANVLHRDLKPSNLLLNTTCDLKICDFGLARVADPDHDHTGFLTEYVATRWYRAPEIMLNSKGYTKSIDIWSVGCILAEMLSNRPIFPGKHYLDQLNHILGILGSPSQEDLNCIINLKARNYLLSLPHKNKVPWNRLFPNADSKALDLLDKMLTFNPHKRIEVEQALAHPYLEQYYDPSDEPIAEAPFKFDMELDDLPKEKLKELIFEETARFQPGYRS", "sequence of UniProt P41595 (whole entry, looked up)": "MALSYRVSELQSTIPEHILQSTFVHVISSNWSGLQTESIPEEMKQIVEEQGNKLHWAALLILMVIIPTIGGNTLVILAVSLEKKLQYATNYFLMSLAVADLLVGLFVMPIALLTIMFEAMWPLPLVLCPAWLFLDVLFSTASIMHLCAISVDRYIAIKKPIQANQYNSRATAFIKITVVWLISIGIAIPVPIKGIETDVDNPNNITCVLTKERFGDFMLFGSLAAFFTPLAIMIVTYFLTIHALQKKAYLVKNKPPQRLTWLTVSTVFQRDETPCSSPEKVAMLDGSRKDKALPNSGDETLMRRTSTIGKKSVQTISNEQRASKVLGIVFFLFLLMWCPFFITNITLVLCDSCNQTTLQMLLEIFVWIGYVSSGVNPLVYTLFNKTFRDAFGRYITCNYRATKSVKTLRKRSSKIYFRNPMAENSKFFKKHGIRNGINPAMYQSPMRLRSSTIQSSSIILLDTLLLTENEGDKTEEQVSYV", "sequence of UniProt P42336 (whole entry, unmodified, looked up)": "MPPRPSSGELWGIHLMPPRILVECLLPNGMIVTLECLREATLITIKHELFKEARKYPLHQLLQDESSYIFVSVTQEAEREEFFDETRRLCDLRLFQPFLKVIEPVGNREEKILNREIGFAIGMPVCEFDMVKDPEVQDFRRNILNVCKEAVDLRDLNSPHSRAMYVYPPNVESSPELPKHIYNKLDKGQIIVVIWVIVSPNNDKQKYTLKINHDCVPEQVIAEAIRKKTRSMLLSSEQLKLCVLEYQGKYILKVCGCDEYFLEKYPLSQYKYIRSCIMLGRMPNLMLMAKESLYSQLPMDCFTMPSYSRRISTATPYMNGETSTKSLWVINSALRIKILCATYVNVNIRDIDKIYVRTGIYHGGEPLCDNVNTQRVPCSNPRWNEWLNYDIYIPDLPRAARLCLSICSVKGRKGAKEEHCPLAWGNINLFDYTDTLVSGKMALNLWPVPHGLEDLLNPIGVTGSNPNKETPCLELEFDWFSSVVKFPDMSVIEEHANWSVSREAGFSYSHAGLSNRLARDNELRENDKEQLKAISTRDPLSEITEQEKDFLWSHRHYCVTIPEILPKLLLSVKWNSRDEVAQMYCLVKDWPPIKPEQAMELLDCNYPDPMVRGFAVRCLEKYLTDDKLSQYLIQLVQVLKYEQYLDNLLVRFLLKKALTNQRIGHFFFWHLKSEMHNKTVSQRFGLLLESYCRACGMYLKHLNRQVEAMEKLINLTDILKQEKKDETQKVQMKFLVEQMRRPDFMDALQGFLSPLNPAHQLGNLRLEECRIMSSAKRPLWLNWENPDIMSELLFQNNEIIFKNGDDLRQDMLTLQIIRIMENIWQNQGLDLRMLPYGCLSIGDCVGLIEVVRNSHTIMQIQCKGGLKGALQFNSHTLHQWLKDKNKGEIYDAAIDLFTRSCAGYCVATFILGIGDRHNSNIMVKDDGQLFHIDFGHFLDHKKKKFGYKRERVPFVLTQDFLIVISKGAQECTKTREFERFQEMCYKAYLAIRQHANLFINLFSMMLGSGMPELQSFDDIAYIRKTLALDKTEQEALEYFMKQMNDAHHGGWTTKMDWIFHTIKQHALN"}
{"data": "Sample 1", "cell line": "A-375", "concentration": "100 µM", "time": "36 h"}
{"SMILES": "Cc1ncc(CSSCc2cnc(C)c(O)c2CO)c(CO)c1O", "viability [%]": 108}
{"SMILES": "CCOC(=O)C1=C(C)NC(C)=C(C(=O)OC)C1c1cccc(Cl)c1Cl (stereo not shown)", "viability [%]": -2.22}
{"SMILES": "CCCCCCCCCC[C@H](C(=O)O)[C@]1(C(=O)O)CCC(=O)O1", "viability [%]": 107}
{"SMILES": "Cc1cn([C@H]2C=C[C@@H](CO)O2)c(=O)[nH]c1=O", "viability [%]": 101}
{"SMILES": "NCCCNCCSP(=O)(O)O", "viability [%]": 106}
{"data": "Sample 2", "target": "Dual specificity tyrosine-phosphorylation-regulated kinase 1A (DYRK1A, Homo sapiens, UniProt Q13627)", "read-out": "enzyme activity", "action": "inhibitor", "concentration": "0.5 µM", "reference": "control"}
{"Compound": "Cn1sc(=O)n(Cc2ccccc2)c1=O", "remaining activity [%]": 92.6}
{"Compound": "Cc1ccc(NC(=O)c2ccc(CN3CCN(C)CC3)cc2)cc1Nc1nc(-c2cccnc2)cs1", "remaining activity [%]": 106}
{"Compound": "Nc1ccc2ncnc(NCCc3ccc(Oc4ccccc4)cc3)c2c1", "remaining activity [%]": 101}
{"Compound": "COc1cc2ncnc(Nc3ccc(Oc4ccccc4)cc3)c2cc1OC", "remaining activity [%]": 84.6}
{"Compound": "COc1ccc(OC)c2c(=S)c3ccccc3[nH]c12", "remaining activity [%]": 103}
{"Compound": "NCCNc1ncc(C(N)=O)c(Nc2cccc(C(F)(F)F)c2)n1", "remaining activity [%]": 103}
{"Compound": "CO[C@H]1C[C@@H]2CC[C@@H](C)[C@@](O)(O2)C(=O)C(=O)N2CCCC[C@H]2C(=O)O[C@H]([C@H](C)C[C@@H]2CC[C@@H](O)[C@H](OC)C2)CC(=O)[C@H](C)/C=C(\\C)[C@@H](O)[C@@H](OC)C(=O)[C@H](C)C[C@H](C)/C=C/C=C/C=C/1C", "remaining activity [%]": 94.3}
{"data": "Sample 3", "host": "mouse", "matrix": "microsomes or S9", "concentration": "2 µM", "time": "0.5 h"}
{"SMILES": "O=c1[nH]c2ccc(NCc3ccc(-c4ccccc4)cc3)cc2[nH]1", "remaining compound": "34.5%"}
{"SMILES": "COc1ccc(S(=O)(=O)[C@H]2CS(=O)(=O)C[C@@H]2NCc2ccc3c(c2)OCO3)cc1C", "remaining compound": "3.49%"}
{"SMILES": "C[C@H]1CN(c2c(F)cc3c(=O)c(C(=O)O)cn4c3c2OC[C@@H]4C)C[C@H]1N", "remaining compound": "84.3%"}
{"SMILES": "Cn1c(=O)nc(O)c2c1nc(NCCN)n2CC(O)COc1ccccc1 (stereo not shown)", "remaining compound": "40%"}
{"SMILES": "COC(=O)c1ccc(C(F)(F)F)nc1OC(C)C(=O)Nc1ccccc1 (stereo not shown)", "remaining compound": "0.0355%"}
{"SMILES": "CN(C)C(=O)c1sc(Cl)nc1S(N)(=O)=O", "remaining compound": "54.2%"}
{"data": "Other studies, line by line"}
{"SMILES": "C[C@H](NC(=O)c1cnc2n1[C@](C)(Cc1ccc(C#N)cc1)C(=O)N2c1cc(Cl)c(F)c(Cl)c1)C(=O)NC1(c2ccccn2)CC1", "target or system": "HTR2B (Homo sapiens, UniProt P41595)", "assay": "binding, radioligand binding", "conditions": "10 µM", "measurement": "inhibition", "value": "17.2%"}
{"SMILES": "CN(C)C(=O)N1CC[C@H](N=C2Nc3cc(F)ccc3N(CC(F)F)c3ccc(Cl)cc32)C1", "target or system": "sample B colorectal tumour organoid", "conditions": "0.1 µM", "how to read": "reference: DMSO", "measurement": "viability", "value": "112%"}
{"SMILES": "CCCCN(CCCC)C(=O)CN1C[C@H](c2cc(OC)c3c(c2)OCO3)[C@@H](C(=O)O)[C@@H]1CC(C)(C)CCC", "target or system": "PIK3CA (Homo sapiens, UniProt P42336, H1047Y)", "assay": "cell-free assay, competition with immobilised ligand", "conditions": "1 µM", "measurement": "remaining binding", "value": "100%"}
{"SMILES": "C[C@@H](NC(=O)Nc1cc2[nH]ncc2c(CO)n1)c1ccccc1", "target or system": "MAPK1 (Homo sapiens, UniProt P28482)", "assay": "target engagement in cells, BRET", "measurement": "IC50", "value": "280 to 850 nM"}
{"note": "Excerpt of the above (other studies, line by line):"}
{"SMILES": "CN(C)C(=O)N1CC[C@H](N=C2Nc3cc(F)ccc3N(CC(F)F)c3ccc(Cl)cc32)C1", "target or system": "sample B colorectal tumour organoid", "conditions": "0.1 µM", "how to read": "reference: DMSO", "measurement": "viability", "value": "112%"}
{"SMILES": "CCCCN(CCCC)C(=O)CN1C[C@H](c2cc(OC)c3c(c2)OCO3)[C@@H](C(=O)O)[C@@H]1CC(C)(C)CCC", "target or system": "PIK3CA (Homo sapiens, UniProt P42336, H1047Y)", "assay": "cell-free assay, competition with immobilised ligand", "conditions": "1 µM", "measurement": "remaining binding", "value": "100%"}
{"SMILES": "C[C@@H](NC(=O)Nc1cc2[nH]ncc2c(CO)n1)c1ccccc1", "target or system": "MAPK1 (Homo sapiens, UniProt P28482)", "assay": "target engagement in cells, BRET", "measurement": "IC50", "value": "280 to 850 nM"}
